Experimental data gathered from unrelated publications.
A part holds a random share of what one study measured.

Sample 1 — technique: competition protein-binding microarray; form: double-stranded DNA, one strand shown; matrix: in vitro; tested at: 2 µM; with: Cbf1 competitor, 0.05 µM; reading: higher = stronger binding; quantity: fluorescence intensity; shared flanks, not repeated: … GTCTTGATTCGCTTGACGCTGCTG
Target: Phosphate system positive regulatory protein PHO4, full length, GST-tagged (PHO4, Saccharomyces cerevisiae, UniProt P07270, residues 1-312)
Setting: whole 60-bp probe, lowest competitor level
Target sequence (chain): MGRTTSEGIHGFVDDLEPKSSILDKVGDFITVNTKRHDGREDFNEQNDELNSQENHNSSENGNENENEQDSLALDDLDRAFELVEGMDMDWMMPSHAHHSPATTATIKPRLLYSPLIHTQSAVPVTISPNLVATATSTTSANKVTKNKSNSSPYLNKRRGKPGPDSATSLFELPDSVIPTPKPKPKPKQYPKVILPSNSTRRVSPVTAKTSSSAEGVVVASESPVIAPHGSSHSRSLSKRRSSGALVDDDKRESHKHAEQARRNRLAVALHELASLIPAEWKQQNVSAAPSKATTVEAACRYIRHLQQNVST
TGTTACGTAATAAGCAACGTGCAAACGCATTTTTTG: 13300 a.u.
AAATTACTAAGTTGTCACGGTACTTACCCCGTATGA: 4810 a.u.
AGTGTTTCAAGCCATCACGTCGACTAACGACAAAGT: 4970 a.u.
CGTATTTGTCACCATCACGTGCTTTAAAATCTTCAG: 20700 a.u.
CGTCCTAGCGATTGAGGTGTGGGTGCCATGAGGAAG: 7260 a.u.

Sample 2 — technique: protein binding microarray; form: double-stranded DNA, one strand shown; matrix: in vitro; tested at: not given; baseline: not given; reading: higher = stronger binding; quantity: E-score
Target: Histone acetyltransferase KAT6A, both winged helices, GST fusion (KAT6A, Homo sapiens, UniProt Q92794, residues 1-181)
Setting: 8-mer, flanks averaged, mean of 2 arrays, mostly near background
Construct (chain): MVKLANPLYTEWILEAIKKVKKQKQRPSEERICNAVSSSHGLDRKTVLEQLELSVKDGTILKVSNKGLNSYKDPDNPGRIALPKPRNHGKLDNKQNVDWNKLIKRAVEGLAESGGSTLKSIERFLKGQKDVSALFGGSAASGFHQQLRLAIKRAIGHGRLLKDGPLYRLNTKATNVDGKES
CTAACTTC: -0.199
GTGCTCTA: -0.112
ACAGGACA: -0.0936
GTCCGTCA: 0.132
AAGTGTCA: -0.178
TCGCTGCA: 0.104

Sample 3 — technique: aptamer microarray, sandwich; form: DNA with 2'F-ANA; matrix: in vitro; tested at: 200 nM; with: Cy3 exosite-II aptamer, 400 nM; reading: higher = stronger binding; quantity: mean fluorescence intensity; strand: GGTTGGTGTGGTTGG
Target: Prothrombin, mature alpha-thrombin (F2, Homo sapiens, UniProt P00734)
Setting: whole 15-mer aptamer, many near background
2'F-ANA at 1 2 3 4 5 7 8 9 15: 64.5 a.u.
2'F-ANA at 1 3 4 9 11 12 13 14: 70 a.u.
2'F-ANA at 1 2 3 4 5 6 14: 48.6 a.u.
2'F-ANA at 1 3 8 12 13 14: 144 a.u.
2'F-ANA at 2 4 5 6 7 8: 78 a.u.

Other studies, line by line
PhoQ, residues 284 288 289 292 302 303 ASTSDA
fold induction (PhoP, residues 12 14 15 18 19 GHCSL (Escherichia coli, UniProt P23836); Sort-seq, refers to: YFP reporter; E. coli; PhoQ-PhoP variant library, with: 10 µM Mg2+; baseline: high Mg2+ state, higher = stronger signaling): 7.51

Excerpt of the above (sample 2):
GTCCGTCA: 0.132
